Measurements of several laboratories.
A part holds a random share of what one study measured. Several values in a cell are separate wells, animals, samples, runs or records.
Chain of UniProt P41145 (whole entry, looked up): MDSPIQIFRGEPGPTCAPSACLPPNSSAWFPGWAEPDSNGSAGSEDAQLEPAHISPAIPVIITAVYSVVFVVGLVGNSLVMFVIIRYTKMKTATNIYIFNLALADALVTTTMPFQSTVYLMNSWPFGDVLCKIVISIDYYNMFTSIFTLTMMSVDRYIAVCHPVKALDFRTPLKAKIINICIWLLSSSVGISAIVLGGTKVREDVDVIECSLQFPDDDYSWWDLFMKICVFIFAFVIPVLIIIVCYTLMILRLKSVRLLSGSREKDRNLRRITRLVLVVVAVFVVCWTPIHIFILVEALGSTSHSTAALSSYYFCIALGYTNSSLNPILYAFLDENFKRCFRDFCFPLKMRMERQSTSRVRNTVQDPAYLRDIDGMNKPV
Chain of UniProt P11229 (whole entry, looked up): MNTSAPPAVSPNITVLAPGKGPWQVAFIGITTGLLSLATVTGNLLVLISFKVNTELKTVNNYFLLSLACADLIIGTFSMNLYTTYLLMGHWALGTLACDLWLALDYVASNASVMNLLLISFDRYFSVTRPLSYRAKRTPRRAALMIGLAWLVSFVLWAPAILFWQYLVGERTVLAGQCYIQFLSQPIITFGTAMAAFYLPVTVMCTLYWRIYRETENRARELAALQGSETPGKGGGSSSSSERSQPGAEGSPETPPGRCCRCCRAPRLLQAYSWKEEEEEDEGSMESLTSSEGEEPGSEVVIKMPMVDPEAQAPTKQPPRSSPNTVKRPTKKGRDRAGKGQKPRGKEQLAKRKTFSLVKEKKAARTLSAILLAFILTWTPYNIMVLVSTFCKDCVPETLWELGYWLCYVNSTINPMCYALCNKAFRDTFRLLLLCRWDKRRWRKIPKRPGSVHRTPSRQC
Chain of UniProt Q01959 (whole entry, looked up): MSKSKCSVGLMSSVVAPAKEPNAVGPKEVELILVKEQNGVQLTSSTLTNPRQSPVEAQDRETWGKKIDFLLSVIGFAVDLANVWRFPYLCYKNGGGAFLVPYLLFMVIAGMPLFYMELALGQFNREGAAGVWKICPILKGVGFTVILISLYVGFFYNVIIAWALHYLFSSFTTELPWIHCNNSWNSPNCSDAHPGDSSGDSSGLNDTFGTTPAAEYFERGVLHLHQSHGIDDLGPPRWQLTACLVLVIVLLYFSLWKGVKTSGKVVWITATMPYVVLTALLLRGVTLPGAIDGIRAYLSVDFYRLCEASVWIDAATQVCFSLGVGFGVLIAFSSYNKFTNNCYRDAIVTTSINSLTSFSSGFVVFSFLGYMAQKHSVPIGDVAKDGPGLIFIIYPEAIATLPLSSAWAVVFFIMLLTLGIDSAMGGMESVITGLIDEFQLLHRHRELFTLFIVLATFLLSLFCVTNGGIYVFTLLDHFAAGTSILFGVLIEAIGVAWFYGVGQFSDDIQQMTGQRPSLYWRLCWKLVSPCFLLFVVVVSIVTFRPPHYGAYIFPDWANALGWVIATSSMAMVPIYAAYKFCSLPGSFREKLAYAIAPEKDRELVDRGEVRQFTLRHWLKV
Chain of UniProt P20309 (whole entry, looked up): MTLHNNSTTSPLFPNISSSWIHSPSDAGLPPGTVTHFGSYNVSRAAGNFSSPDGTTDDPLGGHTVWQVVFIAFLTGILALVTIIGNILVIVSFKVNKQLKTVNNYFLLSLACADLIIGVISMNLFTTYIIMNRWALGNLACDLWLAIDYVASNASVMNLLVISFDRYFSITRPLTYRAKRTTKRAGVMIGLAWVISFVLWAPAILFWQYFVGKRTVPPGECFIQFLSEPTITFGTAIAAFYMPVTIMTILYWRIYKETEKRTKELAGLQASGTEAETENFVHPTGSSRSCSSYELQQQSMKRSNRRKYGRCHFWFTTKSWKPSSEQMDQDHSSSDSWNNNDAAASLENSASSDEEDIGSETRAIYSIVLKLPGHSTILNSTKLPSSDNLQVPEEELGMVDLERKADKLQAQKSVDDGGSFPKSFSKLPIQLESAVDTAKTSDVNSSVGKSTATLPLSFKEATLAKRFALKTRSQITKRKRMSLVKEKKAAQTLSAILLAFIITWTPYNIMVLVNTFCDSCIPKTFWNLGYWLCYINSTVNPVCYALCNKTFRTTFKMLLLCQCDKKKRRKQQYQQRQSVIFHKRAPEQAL
Chain of UniProt P23975 (whole entry, looked up): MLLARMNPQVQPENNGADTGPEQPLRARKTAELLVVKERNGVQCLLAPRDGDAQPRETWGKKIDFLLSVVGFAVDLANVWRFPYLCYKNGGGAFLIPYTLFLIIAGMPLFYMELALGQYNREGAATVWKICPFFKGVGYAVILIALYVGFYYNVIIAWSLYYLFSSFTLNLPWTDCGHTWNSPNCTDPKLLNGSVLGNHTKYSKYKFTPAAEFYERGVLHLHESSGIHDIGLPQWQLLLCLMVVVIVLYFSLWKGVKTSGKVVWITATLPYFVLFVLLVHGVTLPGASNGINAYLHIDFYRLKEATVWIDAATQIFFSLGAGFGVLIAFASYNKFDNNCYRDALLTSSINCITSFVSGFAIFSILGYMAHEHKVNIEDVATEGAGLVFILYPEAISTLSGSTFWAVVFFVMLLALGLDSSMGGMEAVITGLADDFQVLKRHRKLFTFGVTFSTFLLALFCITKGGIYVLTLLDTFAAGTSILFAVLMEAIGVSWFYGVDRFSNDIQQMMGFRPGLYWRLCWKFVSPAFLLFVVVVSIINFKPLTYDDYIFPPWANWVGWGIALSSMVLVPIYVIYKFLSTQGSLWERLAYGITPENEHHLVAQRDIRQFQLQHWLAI

Series 1
Cell line: HEK-293T-ACE2-TMPRSS2
Technique: cell count
Concentration: 10 µM
Endpoint: viability
O=C(NCCSc1ccc([N+](=O)[O-])c2onnc12)Oc1cccc(C(F)(F)F)c1: 70%
O=C(c1csc2c1CCCC2)N1CCCC(CNS(=O)(=O)c2cccs2)C1 (stereo not drawn): 105%
CC1CN(S(=O)(=O)N2CC=C(c3c[nH]c4ncccc34)CC2)CC(C)O1 (stereo not drawn): 105%
COC[C@@H]1CN(C(=O)c2ccc3ncccc3c2)C[C@H]1c1ccncc1: 112%
COc1ccc(CCN2CC(NCc3nc(C)c(C)nc3C)CC2=O)cc1 (stereo not drawn): 111%
CC(C)C[C@H](NC(=O)[C@H](Cc1ccccc1)NC(=O)c1cnccn1)B(O)O: 109%
O=C(/C(=C/c1cccnc1)c1nc2ccccc2[nH]1)c1ccccc1: 257%
Cn1nccc1C(=O)N1C[C@@H](COCC2CC2)[C@H](c2ccncc2)C1: 104%
CC(C)(O)C#Cc1ccc(CN2CCCC(CCC(=O)N3CCOCC3)C2)s1 (stereo not drawn): 111%
CCc1ccc2nc(C)c(CN3CCCC3)c(O)c2c1: 111%
Cc1noc(C)c1CC(=O)N1CCC(CCC(=O)NCc2cccnc2)CC1: 101%
O=C(Cn1cncn1)N1CCC(c2cc(-c3ccccc3Cl)n[nH]2)CC1: 85%
O=C1C2C3C=CC(C2C(=O)N1c1ccccc1)C1C2C(=O)N(c4ccccc4)C(=O)C2C31 (stereo not drawn): 114%
O=C(c1ccc(-c2ccnc3[nH]ccc23)o1)N1CCCCC1: 65%
COc1ccc(NC(=O)N2CCCC(CNC(=O)c3cccs3)C2)c(C)c1 (stereo not drawn): 105%
COc1cccc(NC(=O)CCC2CCN(C(=O)C(C)n3cncn3)CC2)c1 (stereo not drawn): 104%
CCCCOc1ccc(Nc2cc(C)nc3ccc(OC)cc23)cc1: 74%
C=C(C)COc1ccc(C(=O)N2CCOCC2CCC)cc1 (stereo not drawn): 65%
Cc1noc2nc(C(F)(F)F)cc(C(F)(F)F)c12: 66%
c1cc(-c2noc(CSc3nnnn3C3CC3)n2)cs1: 103%

Series 2
SMILES: CNC(=O)c1ccc(-c2cnn3ccc(C(=O)N(C)c4ccc(Cl)c(C(=O)OC)c4)cc23)cc1
Organism: Cryptosporidium parvum
Species: neonatal calves
Dose: dose not given
Endpoint: fecal oocyst count
qPCR; day 9 post-treatment: 0 oocysts/g feces and 285 oocysts/g feces and 6 oocysts/g feces and 43 oocysts/g feces
day 2 post-treatment: 133000 oocysts/g feces and 1830 oocysts/g feces and 10200 oocysts/g feces and 61 oocysts/g feces and 97700 oocysts/g feces and 4360 oocysts/g feces and 573 oocysts/g feces
day 7 post-treatment: 27 oocysts/g feces and 0 oocysts/g feces and 247 oocysts/g feces and 40 oocysts/g feces and 17 oocysts/g feces and 244 oocysts/g feces
qPCR; day 10 post-treatment: 0 oocysts/g feces and 1 oocysts/g feces and 62 oocysts/g feces
qPCR; day 5 post-treatment: 129 oocysts/g feces and 2220 oocysts/g feces and 225 oocysts/g feces and 61 oocysts/g feces and 218 oocysts/g feces and 10800 oocysts/g feces and 5710 oocysts/g feces
day 4 post-treatment: 18000 oocysts/g feces and 1160 oocysts/g feces and 1550 oocysts/g feces and 54 oocysts/g feces
day 3 post-treatment: 1250 oocysts/g feces and 12600 oocysts/g feces and 4870 oocysts/g feces and 4860 oocysts/g feces and 4060 oocysts/g feces and 74 oocysts/g feces
qPCR; day 0 post-treatment: 10600 oocysts/g feces and 126000 oocysts/g feces and 89800 oocysts/g feces and 30700 oocysts/g feces and 77100 oocysts/g feces and 27600 oocysts/g feces and 3520 oocysts/g feces
qPCR; day 11 post-treatment: 231 oocysts/g feces and 0 oocysts/g feces
qPCR; day 12 post-treatment: 0 oocysts/g feces and 19 oocysts/g feces

Series 3
Compound: CO[C@@H](C)c1c(Nc2ccc([C@H](N(C)C(=O)C3CCS(=O)(=O)CC3)C(F)(F)F)cc2)cnc2cc(Cl)nn12
Concentration: 10 µM
Endpoint: inhibition
CHRM3 (Homo sapiens, UniProt P20309); ligand displacement: -8.44%
CHRM1 (Homo sapiens, UniProt P11229); ligand displacement: -12.6%
SLC6A3 (Homo sapiens, UniProt Q01959); cell-free assay: -17.4%
SLC6A2 (Homo sapiens, UniProt P23975); cell-free assay: -28.4%
OPRK1 (Homo sapiens, UniProt P41145); ligand displacement: 31.9%

Series 4
Organism: Sarcocystis neurona
Effect on: parasite growth
Concentration: 10 µM
Endpoint: inhibition
O=C(O)CCCc1ccc(N(CCCl)CCCl)cc1: 6.3%
c1ccc2c(c1)Nc1ccccc1S2: -39.8%
Br.COc1ccc2c(c1)[C@]13CCCC[C@@H]1[C@H](C2)N(C)CC3: -22.7%
O=c1c2ccccc2[se]n1-c1ccccc1: -23.3%
CNC(=O)Oc1ccc2c(c1)[C@]1(C)CCN(C)[C@@H]1N2C.CNC(=O)Oc1ccc2c(c1)[C@]1(C)CCN(C)[C@@H]1N2C.O=S(=O)(O)O: -20.8%
CCC(COC(=O)c1cc(OC)c(OC)c(OC)c1)(c1ccccc1)N(C)C.O=C(O)/C=C\C(=O)O (stereo not drawn): -35.2%
CN(C)C(=O)Oc1ccc[n+](C)c1.[Br-]: 2.2%

Some of these lines once more (series 2):
qPCR; day 9 post-treatment: 0 oocysts/g feces and 285 oocysts/g feces and 6 oocysts/g feces and 43 oocysts/g feces
day 2 post-treatment: 133000 oocysts/g feces and 1830 oocysts/g feces and 10200 oocysts/g feces and 61 oocysts/g feces and 97700 oocysts/g feces and 4360 oocysts/g feces and 573 oocysts/g feces
day 7 post-treatment: 27 oocysts/g feces and 0 oocysts/g feces and 247 oocysts/g feces and 40 oocysts/g feces and 17 oocysts/g feces and 244 oocysts/g feces
qPCR; day 10 post-treatment: 0 oocysts/g feces and 1 oocysts/g feces and 62 oocysts/g feces
qPCR; day 5 post-treatment: 129 oocysts/g feces and 2220 oocysts/g feces and 225 oocysts/g feces and 61 oocysts/g feces and 218 oocysts/g feces and 10800 oocysts/g feces and 5710 oocysts/g feces
day 4 post-treatment: 18000 oocysts/g feces and 1160 oocysts/g feces and 1550 oocysts/g feces and 54 oocysts/g feces
day 3 post-treatment: 1250 oocysts/g feces and 12600 oocysts/g feces and 4870 oocysts/g feces and 4860 oocysts/g feces and 4060 oocysts/g feces and 74 oocysts/g feces
